Assay results collected from several papers.
Each line is one published result; not all experiments were run side by side. ± marks the error that the study gave.

SMILES	target or system	assay	system	conditions	scale	measurement	value
COc1ccc(C(c2ccc(OC)cc2)C(Cl)(Cl)Cl)cc1	Cyprinus carpio	everted gut sac	intestine	concentration not given, 24 h, 23 °C		concentration in serosal solution	140 ± 49 µg/mL
CC[C@H](C)[C@H](NC(=O)[C@H](Cc1c[nH]c2ccccc12)NC(=O)[C@H](CCC(=O)O)NC(=O)[C@H](CCCCN)NC(=O)[C@@H](NC(=O)[C@H](CCCCN)NC(=O)[C@@H](N)CC(N)=O)C(C)C)C(=O)N[C@@H](CCCCN)C(=O)N[C@@H](Cc1ccc(O)cc1)C(=O)N[C@@H](CC(C)C)C(=O)N[C@@H](CCCCN)C(=O)N[C@@H](CO)C(=O)N[C@@H](CC(C)C)C(=O)N[C@@H](Cc1ccccc1)C(=O)N[C@@H](CO)C(=O)N[C@H]1CCOC1=O	Lacticaseibacillus casei		ATCC 393, resting cell suspension	200 µg/mL, 1 h, pH 7.0, 37 °C		remaining peptide	0%
c1ccc(-c2ccccc2-c2ccccc2)cc1	Cyprinus carpio	everted gut sac	intestine	concentration not given, 24 h, 23 °C		concentration in serosal solution	305 ± 120 µg/mL
C[C@H]1[C@@H](O)O[C@@H]2O[C@@]3(C)CC[C@H]4[C@H](C)CC[C@@H]1[C@@]24OO3	Plasmodium falciparum		Vero, K1 chloroquine-resistant		relative to: CC50 Vero over IC50 parasite	selectivity ratio	921
CCN(CC)N=O	Salmonella typhimurium, Escherichia coli	preincubation Ames test		concentration not given, with and without S9		mutagenicity	positive
NC(=O)N1c2ccccc2C=Cc2ccccc21	Danio rerio		zebrafish, male	waterborne exposure, 1000 µg/L nominal, 7 d		plasma concentration	4.28 µg/mL
CCCCCCOC(=O)NC(=N)c1ccc(N(Cc2nc3cc(C(=O)N(CCC(=O)OCC)c4ccccn4)ccc3n2C)N=O)cc1	Salmonella typhimurium, Escherichia coli	preincubation Ames test		concentration not given, with and without S9		mutagenicity	negative
CC[C@H](C)[C@@H](CC(=O)N[C@@H](CCC(=O)O)CC(=O)O)NC(=O)C[C@@H](NC(=O)C[C@H](CCCN)NC(=O)C[C@H](Cc1cccc(C(F)(F)F)c1)NC(=O)C[C@@H](NC(=O)C[C@H](CCC(=O)O)NC(=O)C[C@H](Cc1c[nH]c2ccccc12)NC(=O)C[C@@H](NC(=O)C[C@@H](N)CCCN)C(C)C)C(C)C)C(C)C	HIV-1	MTT	MT2, IIIB	5 days	relative to: CC50 over EC50	selectivity index	8
CN(CCC=C1c2ccccc2CCc2ccccc21)N=O	Salmonella typhimurium, Escherichia coli	preincubation Ames test		concentration not given, with and without S9		mutagenicity	positive
CN[C@@](C)(C[18F])C(=O)O	DU-145 tumour model		host not given, lung	2 h, tumour-bearing		tracer uptake	1.5 %ID/g
CC(C)C[C@H](NC(=O)[C@@H](NC(=O)CNC(=O)[C@H](CCC(=O)O)NC(=O)[C@@H](N)CCCCN)C(C)C)C(=O)N[C@@H](Cc1ccc(O)cc1)C(=O)N[C@H](C(=O)NCC(=O)N[C@@H](Cc1c[nH]cn1)C(=O)N[C@@H](Cc1c[nH]cn1)C(=O)N[C@H](C(=O)N[C@@H](CCCCN)C(=O)O)[C@@H](C)O)C(C)C	Salmonella typhimurium	Ames test		up to 150 µg/plate		mutagenicity	negative
CCN(CC)CCCC(C)Nc1ccnc2cc(Cl)ccc12 (stereo not drawn)	Plasmodium falciparum		Vero, 3D7 chloroquine-sensitive		relative to: CC50 Vero over IC50 parasite	selectivity ratio	23800
CN(CCC(Oc1cccc2ccccc12)c1cccs1)N=O (stereo not drawn)	Salmonella typhimurium, Escherichia coli	preincubation Ames test		concentration not given, with and without S9		mutagenicity	positive
Cc1cccc2c1ccc1cc(C(C)C)ccc12	Danio rerio	severe developmental teratogenicity	embryo medium	pH 7.2, 50% embryos affected DMSO 1%		teratogenic concentration	16.5 µM
O=[N+]([O-])c1ccc(Oc2ccc(Cl)cc2Cl)cc1	Cyprinus carpio	everted gut sac	intestine	concentration not given, 24 h, 23 °C		concentration in mucosal solution	50.4 ± 5.4 µg/mL
Cc1c[nH]c2ccccc12	Salmonella typhimurium		TA98	48 (unit not given), with: human lung microsomes 0.5 mg + NADPH	relative to: DMSO	lowest mutagenic concentration	0.1 µM
Nc1ncnc2c([C@@H]3N[C@H](CO)[C@@H](O)[C@H]3O)c[nH]c12	Zika virus		RD, PRVABC-59	unit not given	relative to: CC50 over EC90	SI90	10
O=NN(c1ccccc1CC(=O)O)c1c(Cl)cccc1Cl	Salmonella typhimurium, Escherichia coli	preincubation Ames test		concentration not given, with and without S9		mutagenicity	negative
CSc1nc(NC(C)C)nc(NC(C)C)n1	Allium cepa		root meristem	6000 mg/L, 72 h		micronucleus frequency	62.5 per 1000 cells
CN(C)N=O	Salmonella typhimurium, Escherichia coli	preincubation Ames test		concentration not given, with and without S9		mutagenicity	positive
O=C(NCCN1CCCC1)c1cc(-c2ccc(CN3CCOCC3)cc2)nc2ccc(F)cc12	Plasmodium falciparum		human, whole blood	oral, 150 mg, malaria volunteer infection study		AUC(0-t)	2680 ng·h/mL

For quick reference, copied from above:
SMILES	target or system	assay	system	conditions	scale	measurement	value
CC[C@H](C)[C@H](NC(=O)[C@H](Cc1c[nH]c2ccccc12)NC(=O)[C@H](CCC(=O)O)NC(=O)[C@H](CCCCN)NC(=O)[C@@H](NC(=O)[C@H](CCCCN)NC(=O)[C@@H](N)CC(N)=O)C(C)C)C(=O)N[C@@H](CCCCN)C(=O)N[C@@H](Cc1ccc(O)cc1)C(=O)N[C@@H](CC(C)C)C(=O)N[C@@H](CCCCN)C(=O)N[C@@H](CO)C(=O)N[C@@H](CC(C)C)C(=O)N[C@@H](Cc1ccccc1)C(=O)N[C@@H](CO)C(=O)N[C@H]1CCOC1=O	Lacticaseibacillus casei		ATCC 393, resting cell suspension	200 µg/mL, 1 h, pH 7.0, 37 °C		remaining peptide	0%
CN[C@@](C)(C[18F])C(=O)O	DU-145 tumour model		host not given, lung	2 h, tumour-bearing		tracer uptake	1.5 %ID/g
O=[N+]([O-])c1ccc(Oc2ccc(Cl)cc2Cl)cc1	Cyprinus carpio	everted gut sac	intestine	concentration not given, 24 h, 23 °C		concentration in mucosal solution	50.4 ± 5.4 µg/mL
